# Measurements gathered from unrelated publications.
# ± gives the spread as reported.
# Sequence of UniProt P35579 (whole entry, looked up): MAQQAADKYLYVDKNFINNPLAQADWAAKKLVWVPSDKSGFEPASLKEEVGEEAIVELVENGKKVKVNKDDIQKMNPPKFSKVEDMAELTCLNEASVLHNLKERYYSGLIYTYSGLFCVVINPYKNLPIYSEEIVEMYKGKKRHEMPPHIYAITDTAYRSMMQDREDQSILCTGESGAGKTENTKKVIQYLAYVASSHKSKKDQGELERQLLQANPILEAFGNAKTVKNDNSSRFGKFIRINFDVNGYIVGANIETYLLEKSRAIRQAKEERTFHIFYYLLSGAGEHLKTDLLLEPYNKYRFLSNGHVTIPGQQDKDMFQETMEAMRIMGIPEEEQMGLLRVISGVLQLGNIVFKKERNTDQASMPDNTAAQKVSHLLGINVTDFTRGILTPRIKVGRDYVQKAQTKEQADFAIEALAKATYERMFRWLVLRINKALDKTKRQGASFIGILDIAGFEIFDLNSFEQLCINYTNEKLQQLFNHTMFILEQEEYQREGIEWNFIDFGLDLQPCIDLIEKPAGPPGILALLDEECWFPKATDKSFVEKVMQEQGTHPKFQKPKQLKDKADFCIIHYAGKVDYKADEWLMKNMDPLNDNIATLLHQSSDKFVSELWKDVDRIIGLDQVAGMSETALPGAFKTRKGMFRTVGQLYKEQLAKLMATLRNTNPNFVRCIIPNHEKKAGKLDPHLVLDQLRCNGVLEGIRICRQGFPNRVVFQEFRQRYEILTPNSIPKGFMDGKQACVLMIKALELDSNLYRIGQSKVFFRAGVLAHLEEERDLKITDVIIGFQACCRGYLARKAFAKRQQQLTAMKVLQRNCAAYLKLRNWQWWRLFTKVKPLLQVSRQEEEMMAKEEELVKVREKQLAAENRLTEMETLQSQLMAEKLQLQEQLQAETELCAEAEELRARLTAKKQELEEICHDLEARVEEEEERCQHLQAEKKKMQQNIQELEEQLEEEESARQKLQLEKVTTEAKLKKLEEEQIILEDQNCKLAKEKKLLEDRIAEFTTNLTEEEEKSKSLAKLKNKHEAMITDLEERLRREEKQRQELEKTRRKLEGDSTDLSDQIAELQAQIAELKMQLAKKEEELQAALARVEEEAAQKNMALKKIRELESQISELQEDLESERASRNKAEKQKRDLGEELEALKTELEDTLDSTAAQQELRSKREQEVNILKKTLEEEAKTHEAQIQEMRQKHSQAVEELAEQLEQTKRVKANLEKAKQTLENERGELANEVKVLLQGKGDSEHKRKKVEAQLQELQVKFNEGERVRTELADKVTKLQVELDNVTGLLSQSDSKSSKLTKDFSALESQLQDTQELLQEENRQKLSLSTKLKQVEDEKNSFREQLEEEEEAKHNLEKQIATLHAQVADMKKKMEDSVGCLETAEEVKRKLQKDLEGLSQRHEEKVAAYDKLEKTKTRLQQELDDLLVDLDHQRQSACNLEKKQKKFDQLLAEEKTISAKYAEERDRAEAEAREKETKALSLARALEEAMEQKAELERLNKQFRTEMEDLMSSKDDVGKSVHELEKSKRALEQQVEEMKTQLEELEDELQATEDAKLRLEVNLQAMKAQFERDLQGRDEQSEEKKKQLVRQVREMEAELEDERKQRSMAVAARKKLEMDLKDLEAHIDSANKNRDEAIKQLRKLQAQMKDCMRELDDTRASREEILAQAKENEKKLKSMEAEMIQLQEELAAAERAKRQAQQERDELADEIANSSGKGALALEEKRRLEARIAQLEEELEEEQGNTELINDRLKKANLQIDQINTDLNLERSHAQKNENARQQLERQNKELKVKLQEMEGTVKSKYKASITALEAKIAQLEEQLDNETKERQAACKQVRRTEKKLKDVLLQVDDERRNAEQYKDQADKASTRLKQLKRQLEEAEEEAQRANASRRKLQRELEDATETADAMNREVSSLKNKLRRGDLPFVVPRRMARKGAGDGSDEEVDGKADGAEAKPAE
Structure (SMILES),target or system,assay,test system,conditions,scale,measurement,value
C[C@H]1CCC/C=C/[C@@H]2C[C@H](O)C[C@H]2[C@H](O)/C=C/C(=O)O1,Toxoplasma gondii,"tachyzoite growth, luciferase","ME49-Fluc, type II",,,EC50,0.05 µM
CCOc1cc2ncc(C#N)c(Nc3ccc(F)c(Cl)c3)c2cc1NC(=O)/C=C/CN(C)C,human coronavirus OC43,virus-induced cell killing,MRC-5,maximum over 10 doses,,maximum inhibition,0%
c1ccc2c(c1)[I+]c1ccccc1-2,Toxoplasma gondii,,,alkaline-induced bradyzoites,,EC50,0.273 µM
O=C(N1CCC2(CC1)C[C@H](CN1CCCCS1(=O)=O)CCO2)C1(c2ccccc2)CCCC1,echovirus 11,viral replication,,,,EC50,> 32 µM
N#C[C@@]1(n2ccc(N)nc2=O)O[C@H](CO)[C@@H](O)[C@H]1O,human coronavirus OC43,"viral replication, cell-based",,,,EC50,> 15 µM
O=C(Nc1cc(F)c(F)c(F)c1)c1ccc(F)c(S(=O)(=O)Nc2ccccc2B(O)O)c1,hepatitis B virus,"viral replication, qPCR, refers to: positive-strand HBV DNA","HepDES19, genotype D",3 days,,EC50,> 5 µM
Fc1ccc(C(OCCN2CCN(CCCc3ccccc3)CC2)c2ccc(F)cc2)cc1,Toxoplasma gondii,"parasite growth, luciferase reporter","HFF, tachyzoite",72 h,,EC50,9.45 µM
CC1(C)OB(c2ccc(NS(=O)(=O)c3cc(C(=O)Nc4cc(F)c(F)c(F)c4)ccc3F)cc2)OC1(C)C,hepatitis B virus,"viral replication, qPCR, refers to: positive-strand HBV DNA","HepDES19, genotype D",3 days,,EC50,3.47 µM
C[C@@H]1C[C@@H]([C@H](O)CC2CC(=O)NC(=O)C2)C(=O)[C@@H](C)C1,Mus musculus,"gene silencing, high-content imaging",LDR reporter GFP cells,"retest, mean of two runs",,EC50,5.01 µM
O=C(Nc1cc(F)c(F)c(F)c1)c1ccc(F)c(S(=O)(=O)Nc2ccc(B(O)O)cc2)c1,hepatitis B virus,"viral replication, qPCR, refers to: positive-strand HBV DNA","HepDES19, genotype D",3 days,,EC50,3.53 µM
CC(C)[C@H](NC(=O)c1ccccc1NC(=O)c1ccccc1)C(=O)N[C@H](CO)C(C)C,human coronavirus OC43,"viral replication, plaque reduction",MRC-5,6 days,,EC50,> 50 µM
COc1ccc([C@@]23Oc4cc(OC)cc(OC)c4[C@@]24N=C(C)N[C@@]4(O)[C@H](C(=O)N(C)OC)[C@H]3c2ccccc2)cc1,Hepatitis E virus,viral replication,"HepG2 HEV-3 replicon, genotype 3",24 h,,EC50,0.00162 µM
C[C@H]1CN(c2n[nH]c3nc(N[C@H]4CC[C@H](NS(=O)(=O)CCC(F)(F)F)CC4)ncc23)CCO1,"Myosin-9 (MYH9, Homo sapiens, UniProt P35579)","inhibitor, Kinobeads competition profiling",,0.16 µM,reference: vehicle,relative abundance,1.07
O=C(Nc1cc(F)c(F)c(F)c1)c1ccc(F)c(S(=O)(=O)N2CCC(O)CC2)c1,hepatitis B virus,"viral replication, strand-preferential qPCR, refers to: positive-strand HBV DNA","HepDES19 cells, genotype D",3 days,,EC50,0.73 ± 0.2 µM
CN1CC[C@@]2(C)c3cc(OC(=O)Nc4ccccc4)ccc3N(C)[C@@H]12,Toxoplasma gondii,parasite growth,"HFF, bradyzoite, alkaline-induced",,,EC50,38.2 µM
COCC(=O)N1CCC[C@H](C(=O)NCc2nc(-c3ccc(C#N)cc3)cs2)C1,Plasmodium falciparum,,Dd2 β5 S28L resistant,,,EC50,0.22 ± 0.043 µM
COC(=O)[C@@H]1[C@@H](c2ccccc2)[C@]2(c3ccc(OC)cc3)Oc3cc(OC)cc(OC)c3[C@@]23N=C(C)N[C@@]13O,Hepatitis E virus,viral replication,"HepG2 HEV-1 replicon, genotype 1",24 h,,EC50,0.00146 µM
COc1cc2c3c(c1OC)-c1ccccc1C[C@H]3N(C)CC2,Toxoplasma gondii,parasite growth,"HFF, bradyzoite, alkaline-induced",,,EC50,4.27 µM
OCCN1C[C@H](O)[C@@H](O)[C@H](O)[C@H]1CO,human coronavirus OC43,virus-induced cell killing,MRC-5,screen,,maximum inhibition,16%

# A few entries again:
Structure (SMILES),target or system,assay,test system,conditions,scale,measurement,value
CCOc1cc2ncc(C#N)c(Nc3ccc(F)c(Cl)c3)c2cc1NC(=O)/C=C/CN(C)C,human coronavirus OC43,virus-induced cell killing,MRC-5,maximum over 10 doses,,maximum inhibition,0%
COC(=O)[C@@H]1[C@@H](c2ccccc2)[C@]2(c3ccc(OC)cc3)Oc3cc(OC)cc(OC)c3[C@@]23N=C(C)N[C@@]13O,Hepatitis E virus,viral replication,"HepG2 HEV-1 replicon, genotype 1",24 h,,EC50,0.00146 µM
O=C(Nc1cc(F)c(F)c(F)c1)c1ccc(F)c(S(=O)(=O)Nc2ccc(B(O)O)cc2)c1,hepatitis B virus,"viral replication, qPCR, refers to: positive-strand HBV DNA","HepDES19, genotype D",3 days,,EC50,3.53 µM
